Assay results collected from several papers.
Numbered parts are unrelated; each lists some results of a single study.

Series 1
Target: RNA binding protein fox-1 homolog 2, RRM domain, GST-SBP tag (RBFOX2, Homo sapiens, UniProt O43251-10, residues 100-194)
Technique: RNA Bind-n-Seq
Molecule type: RNA
Sample: in vitro
Concentration: 365 nM
Notes: natural RNA segment, single round, ends assumed
Reference: no-protein control
Reading: higher = stronger binding
Endpoint: RBNS enrichment (R)
Construct (chain): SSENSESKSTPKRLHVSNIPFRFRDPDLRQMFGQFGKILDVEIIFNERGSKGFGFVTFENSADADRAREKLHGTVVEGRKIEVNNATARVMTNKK
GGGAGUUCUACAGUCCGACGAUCUCUUUCCCUCUUCUCCCCAGCCUCCUCCAGGGCUGCCCAAGGCAGGGUUUCCAGCCAGGCCUCGGGGUCAUCUUUUCACCAGGAGCAAACCCAAGUCUUAGUUGCUACAAUGGAAUUCUCGGGUGCCAA: 0.405
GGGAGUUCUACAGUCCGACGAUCGCAAAUAGAUCUGUUUCAAAAUAUGUUCCCGCUAUGUGGAUAACUCUUCUUUUUAAAAAGAAAAUAGAGAAUAGCAAAUCUUCAUGAUAAUCCUCAAAAGAACAAAAUGCUGGAAUUCUCGGGUGCCAA: 0.465
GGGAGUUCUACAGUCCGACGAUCCAAGUCUGUGAGUGCGUCUGAGGGGACAUCGCCAAGGACUGACUGAGACACGAUGCCGAGACCUCAAGCCCUGAGGGGCAGUCCCAAAACCCUUACAGUGAAGAUGUUUAUGGAAUUCUCGGGUGCCAA: 0.578
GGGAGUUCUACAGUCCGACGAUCAUGAAAUGUCACCACCCGUUUGCGCUCUCAUUCCUUCCAAGCCUGUGACUGGUAUUUUCUCAUGAUGAAUCCUCUCAGGACAUGGCAGAGCUUGGCGAGUACAAAGGGAGUGGAAUUCUCGGGUGCCAA: 0.414
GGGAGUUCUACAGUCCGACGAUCAAGGUCAUCAGAAUGGAGUGAGUGCUCCCUGGGAAGGCAGGCAGGACCUUCAACCAUUGGACCAAGAAGUCAUUGCUUAUGGGUCUCAGGGGCCAUCAAACUGUCUACCUUGGAAUUCUCGGGUGCCAA: 0.243
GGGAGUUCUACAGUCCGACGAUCGCUGAGUGUAAAAGUUGUUAUCUGGACGAUCUGUCUCUCUGCUCCAAAGAAAUUUUGGAGUGAGUGGCAGUCCUGCGCCAGCCUCGCGGGACACGUGUUGUACAUAAGCCUGGAAUUCUCGGGUGCCAA: 0.312
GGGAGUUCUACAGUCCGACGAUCAAAUUAGAAUCAGCAGCACUGUACAAAUAAAGUGCCUGUGCUUCACCUCACACCAAGAAUCUUGCCUAACCCUGUCAGAGUGCCUAAUAUCCUGUGGUGAUUAUGUAUAAUGGAAUUCUCGGGUGCCAA: 0.416
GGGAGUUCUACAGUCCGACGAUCGUCACCUGGGUCUGAGAAGCCUUCACUUCCACUUGCCAGAGGGAAGAACUGGCCACCCAUCUGUCAGGCUCUUCCUUGGAAACGAAGAGCAGAGGUGGUCUCUAGGGGGAUGGAAUUCUCGGGUGCCAA: 0.985

Series 2
Target: Sal-like protein 4, full length isoform B (SALL4, Homo sapiens, UniProt Q9UJQ4-2, residues 1-616)
Technique: universal PBM
Molecule type: double-stranded DNA, one strand shown
Sample: in vitro
Concentration: not given
Notes: 8-mer, flanks averaged, mean of replicates
Reading: higher = stronger binding
Endpoint: E-score
ATACCCCC: 0.0167
ACGAACAA: 0.264
CAGGGAAA: -0.0734
AGCGAGCT: -0.185
CCACGAAG: -0.102
ATGAGACG: -0.0579
ACCTTTAA: 0.106
ACTGCGCA: 0.0176
TGTCCAAA: 0.132
GGGTAACC: -0.265
TACCCATA: 0.214

Series 3
Target: Histone acetyltransferase KAT6A, winged helix 2, GST fusion (KAT6A, Homo sapiens, UniProt Q92794, residues 85-181)
Technique: protein binding microarray
Molecule type: double-stranded DNA, one strand shown
Sample: in vitro
Concentration: not given
Notes: 8-mer, flanks averaged, mean of 2 arrays, mostly near background
Reference: not given
Reading: higher = stronger binding
Endpoint: E-score
Construct (chain): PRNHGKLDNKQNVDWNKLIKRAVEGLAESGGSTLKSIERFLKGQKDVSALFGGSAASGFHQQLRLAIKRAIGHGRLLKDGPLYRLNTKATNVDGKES
ATCTGGTG: 0.0777
AGATCGGG: -0.0686
ACTCCGAT: -0.0098
CCCTGGCG: 0.174
CGGCCAAC: 0.0379
ATACGCGC: 0.0908

Series 4
Molecule: PhoQ, residues 284 288 289 292 302 303 TLASMF
Technique: Sort-seq
Item: YFP reporter
Sample: E. coli
Notes: PhoQ-PhoP variant library
Together with: 10 µM Mg2+
Reference: high Mg2+ state
Reading: higher = stronger signaling
Endpoint: fold induction
PhoP, residues 12 14 15 18 19 ICWRQ (Escherichia coli, UniProt P23836): 28.2
PhoP, residues 12 14 15 18 19 VHTVL (Escherichia coli, UniProt P23836): 1.39
PhoP, residues 12 14 15 18 19 TQCLL (Escherichia coli, UniProt P23836): 3.63

Some of these lines once more (series 1):
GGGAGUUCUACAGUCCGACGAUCCAAGUCUGUGAGUGCGUCUGAGGGGACAUCGCCAAGGACUGACUGAGACACGAUGCCGAGACCUCAAGCCCUGAGGGGCAGUCCCAAAACCCUUACAGUGAAGAUGUUUAUGGAAUUCUCGGGUGCCAA: 0.578
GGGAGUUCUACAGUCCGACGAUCAUGAAAUGUCACCACCCGUUUGCGCUCUCAUUCCUUCCAAGCCUGUGACUGGUAUUUUCUCAUGAUGAAUCCUCUCAGGACAUGGCAGAGCUUGGCGAGUACAAAGGGAGUGGAAUUCUCGGGUGCCAA: 0.414
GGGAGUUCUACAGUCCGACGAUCAAGGUCAUCAGAAUGGAGUGAGUGCUCCCUGGGAAGGCAGGCAGGACCUUCAACCAUUGGACCAAGAAGUCAUUGCUUAUGGGUCUCAGGGGCCAUCAAACUGUCUACCUUGGAAUUCUCGGGUGCCAA: 0.243
